Experimental data from different studies.
Parts stem from different laboratories: compare values within a part only. Substitutions count along the parent as printed.

Study 1
Target: Centromere-binding protein 1, full length, His-tagged (CBF1, Saccharomyces cerevisiae, UniProt P17106, residues 1-351)
UniProt P17106, sequence (whole entry, looked up): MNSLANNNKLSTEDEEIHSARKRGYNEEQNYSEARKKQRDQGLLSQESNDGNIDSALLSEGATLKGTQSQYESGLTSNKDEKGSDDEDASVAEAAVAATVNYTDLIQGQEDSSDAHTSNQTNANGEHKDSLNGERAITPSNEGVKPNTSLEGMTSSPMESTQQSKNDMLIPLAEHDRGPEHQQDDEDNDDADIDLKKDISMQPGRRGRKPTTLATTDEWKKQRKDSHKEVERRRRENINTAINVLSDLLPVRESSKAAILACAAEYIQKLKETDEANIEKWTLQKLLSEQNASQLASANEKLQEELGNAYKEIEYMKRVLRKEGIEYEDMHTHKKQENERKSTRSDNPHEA
Technique: competition protein-binding microarray
Form: double-stranded DNA, one strand shown
Sample: in vitro
Tested at: 2 µM
Notes: whole 60-bp probe, lowest competitor level
Added: Pho4 competitor, 0.05 µM
Reading: higher = stronger binding
`GGGTAGCCCTCTCAACACGTGGAGGGTAACCTTTTCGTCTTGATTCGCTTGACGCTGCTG` gave a fluorescence intensity of 520 a.u.
For `CAAGGGATCCTCATTCTCGTGGTCGTAGGTGGGTTGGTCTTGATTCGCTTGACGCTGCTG`, the fluorescence intensity was 71.8 a.u.
The fluorescence intensity of `CACATCTCCCTTGCGCCCGTGCTTTTATATATATAAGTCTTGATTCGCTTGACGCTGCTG` is reported as 98.3 a.u.
With `ACGTTTTGTCCAGATGTTCATCACCGAACAAACGTCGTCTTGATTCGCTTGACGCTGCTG` the fluorescence intensity was 73.5 a.u.
With `TATTCAGCCAGTTTGTATATATGAGAATTAAACGTTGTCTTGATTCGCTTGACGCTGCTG` the fluorescence intensity was 81.5 a.u.
`GTATGAATGCCGCTGTTCGTGCCGATGTTCGTACAGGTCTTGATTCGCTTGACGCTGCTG` gave a fluorescence intensity of 58.7 a.u.
The fluorescence intensity of `CGGGGTTAAGTTTTTCACGTGTCCTGCTTGCAGCAGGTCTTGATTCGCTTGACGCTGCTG` is reported as 885 a.u.
`AGTTGTAAGAATTTGCACGGGCCCACAAATCCGACAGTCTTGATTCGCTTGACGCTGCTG` has a fluorescence intensity of 90.4 a.u.
`TCATGCTAAAAATGAGGCGTGGGACAATATTCAGTAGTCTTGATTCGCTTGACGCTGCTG` has a fluorescence intensity of 74 a.u.

Study 2
Target: TAR DNA-binding protein 43, full length, His tag (TARDBP, Homo sapiens, UniProt Q13148, residues 1-414)
Technique: RNA Bind-n-Seq
Form: RNA
Sample: in vitro
Tested at: 20 nM
Notes: 6-mer, flanks averaged, single round
Added: 150 mM LiCl
Reference: input library
Reading: higher = stronger binding
For `GACUCU`, “6-mer enrichment (R)” read 0.87.
For `AAGUCG`, “6-mer enrichment (R)” read 0.917.
`GACUUA` — result for “6-mer enrichment (R)”: 0.878.
Under “6-mer enrichment (R)”, `AGAGCA` is recorded as 0.923.
`AAGUAU`: “6-mer enrichment (R)” 1.
`AGUAGU` — result for “6-mer enrichment (R)”: 1.01.
`CGAUGA` — result for “6-mer enrichment (R)”: 0.872.
`GGCAUG`: “6-mer enrichment (R)” 1.08.

Study 3
Target: CCNA2, cyclin fold, Cln2 fusion (human)
Technique: yeast growth competition, sequencing
Sample: yeast
Notes: weak parent motif
Reference: not given
Reading: higher = stronger binding
Starting sequence: SLBP docking peptide (human); ARYKRKLLINDFG
For `A1D`, “normalised enrichment score” read 1.26.
Under “normalised enrichment score”, `Y3D` is recorded as 1.49.
`F12P`: “normalised enrichment score” 0.888.
For `A1P`, “normalised enrichment score” read 1.23.
`R2T`: “normalised enrichment score” 1.87.
`R5D` — result for “normalised enrichment score”: 0.159.
For `A1S`, “normalised enrichment score” read 1.27.
For `R5F`, “normalised enrichment score” read 1.53.

Single results of other studies
For `PhoQ, residues 284 288 289 292 302 303 SCKMEA`, the fold induction was 2.42 (PhoP, residues 12 14 15 18 19 NFCKL (Escherichia coli, UniProt P23836); Sort-seq, item: YFP reporter; E. coli; PhoQ-PhoP variant library, added: 10 µM Mg2+; reference: high Mg2+ state, higher = stronger signaling).
